Measured values collected from several papers.
Numbered parts are unrelated; each lists some results of a single study. Substitutions count along the parent as printed.

Set 1
Target: UBE2D1 UBC core domain (UniProt P51668)
Method: yeast two-hybrid
Medium: yeast
Setting: mostly zero background
Reference: not given
Reading: higher = stronger interaction
B1: TRIM40 RING domain (UniProt Q6P9F5); chain LQKDNQEEGVCPICQESLKEAVSTNCGHLFCRVCLTQHVEKASASGVFCCPLCRKPCSEEVLG
B2: TRIML1 RING domain (UniProt Q8N9V2); chain LMENLREELTCFICLDYFSSPVTTECGHSFCLVCLLRSWEEHNTPLSCPECWRTLEGPHFQS
B3: RNF208 RING domain (UniProt Q9H0X6); chain SSAAAGEPLECPTCGHSYNVTQRRPRVLSCLHSVCEQCLQILYESCPKYKFISCPTCRRETVLFTDYG
B4: TRIM4 RING domain (UniProt Q9C037); chain EAEDIQEELTCPICLDYFQDPVSIECGHNFCRGCLHRNWAPGGGPFPCPECRHPSAPAALRP
B5: VPS41 RING domain (UniProt P49754); chain KGVLVDEENICESCLSPILPSDAAKPFSVVVFHCRHMFHKECLPMPSMNSAAQFCNICSAKNRGPGSAI
B6: TRIM24 RING domain (UniProt O15164); chain EAARLNLLDTCAVCHQNIQSRAPKLLPCLHSFCQRCLPAPQRYLMLPAPMLGSAETPPPVPAPGSPVSGSSPFATQVGVIRCPVCSQECAERHII
B7: MKRN1 RING domain (UniProt Q9UHC7); chain FAVQRSKDMVCGICMEVVYEKANPSERRFGILSNCNHTYCLKCIRKWRSAKQFESKIIKSCPECRITSNFVIPSE
B8: TRIM43 RING domain (UniProt Q96BQ3); chain FSHAFQKELTCVICLNYLVDPVTICCGHSFCRPCLCLSWEEAQSPANCPACREPSPKMDFKT
Residues (chain): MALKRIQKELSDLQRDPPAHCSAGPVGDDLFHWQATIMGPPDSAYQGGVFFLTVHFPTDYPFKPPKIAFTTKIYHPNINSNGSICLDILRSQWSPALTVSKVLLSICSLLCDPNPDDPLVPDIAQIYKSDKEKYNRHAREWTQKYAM
`B1 (TRIM40 RING domain)`: “lacZ reporter activity” 0.
For `B2 (TRIML1 RING domain)`, “lacZ reporter activity” read 0.
For `B3 (RNF208 RING domain)`, “lacZ reporter activity” read 0.
For `B4 (TRIM4 RING domain)`, “lacZ reporter activity” read 0.
`B5 (VPS41 RING domain)` — result for “lacZ reporter activity”: 0.
`MPIRALCTICSDFFDHSRDVAAIHCGHTFHLQCLIQWFETAPSRTCPQCRIQVGKRTIIN (TRAIP RING domain (UniProt Q9BWF2))`: “lacZ reporter activity” 0.
For `B6 (TRIM24 RING domain)`, “lacZ reporter activity” read 0.
For `B7 (MKRN1 RING domain)`, “lacZ reporter activity” read 0.
`B8 (TRIM43 RING domain)` — result for “lacZ reporter activity”: 0.

Set 2
Target: Ras GTPase-activating protein-binding protein 1, full length (G3BP1, Homo sapiens, UniProt Q13283)
Chain of UniProt Q13283 (whole entry, looked up): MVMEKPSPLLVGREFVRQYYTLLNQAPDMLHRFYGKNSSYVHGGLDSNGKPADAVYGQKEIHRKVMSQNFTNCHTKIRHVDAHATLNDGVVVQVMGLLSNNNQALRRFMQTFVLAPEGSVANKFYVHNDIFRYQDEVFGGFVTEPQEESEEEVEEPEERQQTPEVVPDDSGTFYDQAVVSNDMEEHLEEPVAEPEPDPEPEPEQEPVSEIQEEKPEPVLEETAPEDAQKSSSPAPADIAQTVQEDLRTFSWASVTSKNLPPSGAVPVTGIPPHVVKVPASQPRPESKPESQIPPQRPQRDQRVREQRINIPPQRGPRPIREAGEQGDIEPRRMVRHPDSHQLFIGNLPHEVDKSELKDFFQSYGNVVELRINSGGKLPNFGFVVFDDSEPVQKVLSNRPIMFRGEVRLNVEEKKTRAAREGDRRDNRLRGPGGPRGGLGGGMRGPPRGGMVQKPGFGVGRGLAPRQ
Method: RNA Bind-n-Seq
Form: RNA
Medium: in vitro
Tested at: 200 nM
Setting: whole 134-nt RNA, ends assumed
Added: 150 mM LiCl
Reference: input library
Reading: higher = stronger binding
Library: 7-deaza-guanosine replaces G
Shared flanks, not repeated: GGGAGUUCUACAGUCCGACGAUC … UGGAAUUCUCGGGUGUCAAGG
The log2 enrichment of `GUCCUGUGCUACACAUCGUAUGUACCGAAUCAAACCCCCAAAUUUAAAUUUUUUUAAAAAAGUAUUAUGUUACGCCGUUCGGAUCUGCAC` is reported as 0.712.
For `AUUAUAGACUUGAUCAAAACACAGGAAAAGGCAACUCCCAGGAACUUUCCGCCACGAUUCCAGGAUGGAUAUUACAGCUGACAGCUUUUC`, the log2 enrichment was -1.14.
For `UGGCCCUGGUGGCAUGCGUGGAGGAAGAGGUGGCCUCAUGGAUCGUGGUGGUCCCGGUGGAAUGUUCAGAGGUGGCCGUGGUGGAGACAG`, the log2 enrichment was 0.243.
For `AGUCCUGUGCUACACAUCGUAUGUACCGAAUCGGGGAAAGGGGAAAAAGGGGAGGGGAAAGUAUUAUGUUACGCCGUUCGGAUCUGCACU`, the log2 enrichment was 0.119.
For `CUCAAGUCCUGUGCUACACAUCGUAUGUACCGAAUCGGGAAGGGAAGGGAAGGAAAGUAUUAUGUUACGCCGUUCGGAUCUGCACUUCCA`, the log2 enrichment was -0.203.
`CCUGUGCUACACAUCGUAUGUACCGAAUCGGGAAAAAAAGGAAAAAAAGGAAAAAAAGGGGAAAGUAUUAUGUUACGCCGUUCGGAUCUG` gave a log2 enrichment of 0.115.
The log2 enrichment of `AAGUCCUGUGCUACACAUCGUAUGUACCGAAUCGGGGUUUUUGGGGUGGGGUGGGGAAAGUAUUAUGUUACGCCGUUCGGAUCUGCACUU` is reported as -0.0424.

Set 3
Target: CCNE1, cyclin fold, Cln2 fusion (human)
Method: yeast growth competition, sequencing
Medium: yeast
Setting: strong parent motif
Reference: not given
Reading: higher = stronger binding
Parent: INSM1 docking peptide (human); PKAIRKLHFEDEV; partner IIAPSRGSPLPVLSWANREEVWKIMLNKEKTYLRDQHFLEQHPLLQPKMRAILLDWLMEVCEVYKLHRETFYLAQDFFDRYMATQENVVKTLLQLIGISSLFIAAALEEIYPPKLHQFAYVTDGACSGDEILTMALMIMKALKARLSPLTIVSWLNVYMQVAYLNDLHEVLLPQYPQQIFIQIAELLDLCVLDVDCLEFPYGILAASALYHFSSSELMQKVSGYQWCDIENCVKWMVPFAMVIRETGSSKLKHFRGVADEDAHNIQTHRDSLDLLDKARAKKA
For `L7T`, “normalised enrichment score” read -0.0313.
For `A3F`, “normalised enrichment score” read 2.62.
For `R5V`, “normalised enrichment score” read 0.262.
Under “normalised enrichment score”, `K2S` is recorded as 5.12.
For `K6E`, “normalised enrichment score” read 1.6.
`D11C` — result for “normalised enrichment score”: 3.59.
For `K6H`, “normalised enrichment score” read 2.03.
For `L7M`, “normalised enrichment score” read 0.324.
Under “normalised enrichment score”, `K2H` is recorded as 4.63.

Set 4
Target: RNA binding protein fox-1 homolog 2, RRM domain, GST-SBP tag (RBFOX2, Homo sapiens, UniProt O43251-10, residues 100-194)
Method: RNA Bind-n-Seq
Form: RNA
Medium: in vitro
Tested at: 365 nM
Setting: natural RNA segment, single round, ends assumed
Reference: no-protein control
Reading: higher = stronger binding
Shared flanks, not repeated: GGGAGUUCUACAGUCCGACGAUC … UGGAAUUCUCGGGUGCCAA
Target sequence (chain): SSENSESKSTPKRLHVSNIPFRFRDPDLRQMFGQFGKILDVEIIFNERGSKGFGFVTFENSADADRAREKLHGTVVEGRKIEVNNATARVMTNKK
`AAAGUGAAAAGAGAUUCAACCAAGAGGACAGCUCUGGAGCAGAAAAAUACAUGUUUAUAGGAUGCGAUUGUUUCAACUUUCUUUUUCCAUUUUAAGAAGAUUCCAUUUCG` — result for “RBNS enrichment (R)”: 0.425.
`CCAUGACCAUCAGGUUAGUAACCGAGACUUUGCCCUGGUGAGCUGAGAGUAGACCUGGUUACCGGCAGUGCAUGAUGUCAGGGUCAGCCUGAAGCUAUUGCUGCUCGUCU` — result for “RBNS enrichment (R)”: 4.35.
For `CAGCUGGGCUCCCUUUGUCAGAGUCAAUGGAUGAUGCUUCCAGGACAAAUCGGCUUCCUCUCCCCACCCUCCUGCCACUCUAAGUAUUGAAUGUACUUUGUAUAAUUUUA`, “RBNS enrichment (R)” read 1.52.
For `GUAAGCUCUGUUGUACAGUCUGUCCAAAUGGGUCAAGGUUGCCUUUAGAAGCAAAUAGUGUGAUUUUCAAGACUUCAAAUACAAAUUUAGUUUAAGUGUUUGAACAACUA`, “RBNS enrichment (R)” read 0.403.
`AAAACUUGGAGGGUCUCGGUUGUUUUCCAUGCCUGGCCCCUCACAGCAGCGAGGCCACUGAAGAGCAACACACCCAGUGUGUGUCAGUGUUCUCAGCCCAGCCCUCCCUG` — result for “RBNS enrichment (R)”: 0.271.
For `GAAGCAGCUACCUAAUUGGCAGGCCAAGGAGGAGUGCUGUCUGUCCAAGAGGGGACCUGUGGCCAGAUACUUUCCACUUUAGGCUCACAGGGUUGAGUUGCAAAAGCCAC`, “RBNS enrichment (R)” read 0.396.
For `AAGAAUAGUAUGCCAGCAAUCCCUGAUUCUCUCUCUGCUUGGUGUUCUCUGGCAGCACUAAGACAAAGGAACAGGGACUAGGAGUUUACGUGCUUAUCACAGGUCCUUGG`, “RBNS enrichment (R)” read 0.316.
Under “RBNS enrichment (R)”, `CGACUCCCCACCCUUUUGCAUUCUGGGAGCCCACAUCUAUUUUUUACACCCCCCCCCACAAGAGGGGUGGAGUUUCUUCCCAACCCAAAUCUGGAGAGGUCAGAAUGGAA` is recorded as 0.269.
For `GGCCUCUUGGAUCCACUGGCCCAGAGAUUUAAAAGUUUGGGGUUGAGGAUGUGUGUAGCUCAGUUGGUAGACUGAUUGCCCUACAUGAACGGGACUGAAUUUGAUCACCA`, “RBNS enrichment (R)” read 0.385.
`UCCAGGCUGGAAGAAUUGUAACAUAGCAUGAUAUCUUUGUGUUAACUUGAAAGGACUGACCCCAUUGUCCCUUAGAAGUACUGACGUGUGCCAUCACGCAUUUAAGACAG` — result for “RBNS enrichment (R)”: 6.11.
`UUGGGGUUGAAAACUUAAAUGUGUAGUUCCAGUCCUUCUAUGCAGAGUCUCUCCUGCCCUCCCUCCUUCCUGCAGGCAAAUAUACAAGCUAGACCCUGUUCCCUCACCCU` — result for “RBNS enrichment (R)”: 0.367.
For `ACCCAGAUUGUGUGCCCUGUGCCAGUGGGGGGGUUGAGGGUGGGACGGUGUCCGUGUUGUUGCUUUCCCACCCUGCAGCGCACUGGACUGAAGAGCUUCCCUCUUCCUAC`, “RBNS enrichment (R)” read 0.651.

Set 5
Target: Centromere-binding protein 1, full length, N-terminal tag (CBF1, Saccharomyces cerevisiae, UniProt P17106, residues 1-351)
Chain of UniProt P17106 (whole entry, looked up): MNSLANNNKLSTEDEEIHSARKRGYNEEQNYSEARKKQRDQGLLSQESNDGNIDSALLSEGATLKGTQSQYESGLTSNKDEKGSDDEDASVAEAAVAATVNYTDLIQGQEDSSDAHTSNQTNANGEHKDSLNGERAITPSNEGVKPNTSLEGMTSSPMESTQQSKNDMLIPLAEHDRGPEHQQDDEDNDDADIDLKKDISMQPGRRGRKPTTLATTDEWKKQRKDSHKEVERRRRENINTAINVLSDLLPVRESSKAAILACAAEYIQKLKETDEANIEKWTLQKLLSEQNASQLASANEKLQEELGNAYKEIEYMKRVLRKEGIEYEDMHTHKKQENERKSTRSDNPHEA
Method: protein-binding microarray
Form: double-stranded DNA, one strand shown
Medium: in vitro
Tested at: 0.8 µM
Setting: whole 60-bp probe, no competitor
Reading: higher = stronger binding
Shared flanks, not repeated: … GTCTTGATTCGCTTGACGCTGCTG
`GAATCTTCCATTTTTTATGTGACATTATCCTATTAG` gave a fluorescence intensity of 523 a.u.
For `GAAGACACAGAACCACAGCTGACCGGTAGTAAATAG`, the fluorescence intensity was 576 a.u.
The fluorescence intensity of `CTAGATAATCTACATCATGTGGTACGTTAACGATTC` is reported as 1410 a.u.
For `CTAGTTTTTCACGTTGACGTGCTTCTTAGTCCTTTC`, the fluorescence intensity was 606 a.u.
`CTATGTTACAATTACCAGGTGAGTAGGATAGGATTC` gave a fluorescence intensity of 556 a.u.
With `CTACAAGCGAAATATCACGAATAATAATATAAATTC` the fluorescence intensity was 501 a.u.
With `TGTACGAAGCTATAGCACGTGCATATAGTAGTTAGG` the fluorescence intensity was 11400 a.u.
`TGTACGAAGCTATCTTGCATGACTATAGTAGTTAGG` gave a fluorescence intensity of 565 a.u.
`CCTAACTACTATATGCATGTGAAATAGCTTCGTACA` gave a fluorescence intensity of 567 a.u.
For `GAAAATCAGGTGAATCATGTGGGACTGAAGAGATAG`, the fluorescence intensity was 1030 a.u.
With `TGTACGAAGCTATACCACGTAGATATAGTAGTTAGG` the fluorescence intensity was 561 a.u.
With `CTATTTGTAATTATAATCATGATGATAACGCTATTC` the fluorescence intensity was 532 a.u.
For `GAATATATGAATCCACGCACCTGATCTGGCTCTTAG`, the fluorescence intensity was 1170 a.u.

Set 6
Target: Histone acetyltransferase KAT6A, winged helix 1, GST fusion (KAT6A, Homo sapiens, UniProt Q92794, residues 1-85)
Method: protein binding microarray
Form: double-stranded DNA, one strand shown
Medium: in vitro
Tested at: not given
Setting: 8-mer, flanks averaged, mean of 2 arrays, mostly near background
Reference: not given
Reading: higher = stronger binding
Target sequence (chain): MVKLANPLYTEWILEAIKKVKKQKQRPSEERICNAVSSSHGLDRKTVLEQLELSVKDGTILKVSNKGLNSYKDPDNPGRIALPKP
`ATTAAACG` gave an E-score of -0.0841.
For `CGTGTTCA`, the E-score was 0.0247.
For `ATAGGTTC`, the E-score was 0.0449.
The E-score of `ATCTTTAA` is reported as -0.0361.
`AGGTCTCG` gave an E-score of -0.103.
For `GTTCATCA`, the E-score was -0.167.
`TCCTATCA` gave an E-score of -0.141.
The E-score of `CACTCGAG` is reported as -0.25.
`CATTTTCG` gave an E-score of -0.112.
The E-score of `ACGATCAG` is reported as -0.175.
With `GAGTACCC` the E-score was 0.155.
The E-score of `ATCCCTTC` is reported as -0.000685.
For `AAGAATGG`, the E-score was -0.169.
With `TAGCCCTA` the E-score was -0.0793.
